Measured values pooled from the literature.
Protocols differ between the studies behind these lines. Numbers after ± are the reported error.

For `CC(=C(c1ccc(O)cc1)c1ccc(Cl)cc1)c1ccc(Cl)cc1`, “alkaline phosphatase activity” read 3.76 ± 1.41 (Ishikawa; 1 µM, 72 h, unit not given; baseline: DMSO).
For `CC(C)(C)c1nc(-c2cccc(NS(=O)(=O)c3c(F)cccc3F)c2F)c(-c2ccnc(N)n2)s1.Cc1[nH]c2ccccc2c1CCNCc1ccc(/C=C/C(=O)NO)cc1`, “cells in G2/M phase” read 3.09% (C13; flow cytometry; concentration not given, 48 h, concentration about IC50).
`C=C1[C@H](O)CC(=C/C=C2\CCC[C@]3(C)[C@@H]([C@H](C)CCCCO)CC[C@@H]23)C[C@H]1O` has an EC50 ratio of 20 (rat osteosarcoma cells; reporter gene, luciferase, item: CYP24A1 (24-hydroxylase) promoter; baseline: compound over 1α,25-dihydroxyvitamin D3).
`O=C(N1CCCC1)n1cc(-c2ccc(-c3ccccc3)cc2)nn1` gave an SILAC ratio of 1.07 ± 0.11 (mouse T-cells; N-terminal labelling enrichment, item: S100A6 N-terminal peptides; 1 nM, 6 h, protein median; baseline: DMSO).
Under mRNA level, `CN1CCCNC(=O)c2cccc(c2)C(=O)NCCCN(C)CCCNc2cccc3c2C(=O)c2cccc(c2C3=O)NCCC1` is recorded as “decreased” (SAS; item: hTERT; concentration not given, 6 h).
With `CC(=O)OC[C@H]1O[C@@H](Sc2sc(C(=O)c3ccc(C)cc3)c(N)c2-c2nc3ccccc3s2)[C@H](OC(C)=O)[C@@H](OC(C)=O)[C@@H]1OC(C)=O` the growth was 56.1% (NCI-H23; SRB; 10 µM, 48 h; baseline: untreated).
`O=Cc1c(O)ccc2ccccc12`: “log2 fold change” -3.15 (HUVEC; RNA sequencing, item: FABP4; 75 µM, 24 h; baseline: DMSO).
`CN(C)C/C=C(/c1ccc(Br)cc1)c1cccnc1`: “minimum effective concentration” 10 µM (hiPSC cardiac tissues 3D; active force; 15 min per concentration, paced at 1 Hz serum-free).
For `CO[C@H]1N(OC)c2ccccc2[C@@]12CN=C(Nc1cc(C(F)(F)F)cc(C(F)(F)F)c1)S2` (relative stereo), “early apoptotic cells” read 30.2 ± 11.1% (HCT-116; annexin V/PI flow cytometry; 40 µM, 72 h).
With `Cc1nn(-c2ccc(S(=O)(=O)N[C@@H](CO)CC(C)C)cc2)c2nn3nnnc3nc12` the apoptotic cells was 38.5 ± 2.12% (HT-29; AO/EB staining; 2 µM, 24 h).
`COc1cc(CNC(=O)C[C@H](C)CCC=C(C)C)ccc1OCc1cn(-c2ccccc2)nn1` has a growth percent of 88.5% (TK-10; SRB; 10 µM, 48 h).
`COc1ccc(C=C2SC(N3N=C(c4cccs4)CC3c3ccc(F)cc3)=NC2=O)cc1` (centres unmarked) — result for “late apoptotic cells”: 19% (T47D; annexin V-FITC/PI flow cytometry; concentration not given).
The growth percent of `COc1cc(CNC(=O)C[C@H](C)CCC=C(C)C)ccc1O` is reported as 81.9% (CAKI-1; SRB; 10 µM, 48 h).
For `C=C(C)[C@@H]1CC[C@]2(C(=O)OCO/N=[N+](\[O-])N3CCCC3)CC[C@]3(C)[C@H](CC[C@@H]4[C@@]5(C)CC[C@H](OC(C)=O)C(C)(C)[C@@H]5CC[C@]43C)[C@@H]12`, “Annexin V-positive cells” read 22.1% (B16-F10; Annexin V/PI flow cytometry; 1 µM, 36 h).
`COc1cc(CNC(=O)C[C@H](C)CCC=C(C)C)ccc1OCc1cn(-c2ccccc2Cl)nn1` has a growth percent of 83% (SK-OV-3 ovarian cancer cells; SRB; 10 µM, 48 h).
`N=C(N/N=C/c1ccccn1)N/N=C/c1ccccn1` gave a selectivity ratio of 19.8 (PANC-1; crystal violet; 72 h; baseline: IC50 IMR-90 over IC50 PANC-1).
`COc1cc(CNC(=O)C[C@H](C)CCC=C(C)C)ccc1OCc1cn(-c2ccc(Br)cc2)nn1` gave a growth percent of 64% (SK-OV-3 ovarian cancer cells; SRB; 10 µM, 48 h).
`CC/C=C\C/C=C\C/C=C\C/C=C\C/C=C\C/C=C\CCC(=O)Nc1ccn(C2OC(CO)C(O)C2(F)F)c(=O)n1` (centres unmarked) gave a TGI of 22.9 µM (UACC-257; NCI60 screen).
With `CCC(C(=O)O)C1CCC(C)C(C(C)C(O)C(C)C(=O)C(CC)C2OC3(C=CC(NCc4cn(-c5ccc(C(C)=O)cc5)nn4)C4(CCC(C)(C5CCC(O)(CC)C(C)O5)O4)O3)C(C)CC2C)O1` (centres unmarked) the selectivity ratio was 18.5 (HMLER; cell proliferation; baseline: IC50 CD24high/CD44low over IC50 CD24low/CD44high).
The growth percent of `COc1cc(CNC(=O)C[C@H](C)CCC=C(C)C)ccc1OCc1cn(-c2ccccc2[N+](=O)[O-])nn1` is reported as 73.7% (SN12C; SRB; 10 µM, 48 h).
